Measurements pooled from the literature.
Numbered parts are unrelated; each lists some results of a single study.

Block 1 — technique: RNA Bind-n-Seq; form: RNA; sample: in vitro; tested at: 365 nM; baseline: no-protein control; direction: higher = stronger binding
Target: RNA binding protein fox-1 homolog 2, RRM domain, GST-SBP tag (RBFOX2, Homo sapiens, UniProt O43251-10, residues 100-194)
Setting: natural RNA segment, single round, ends assumed
Shared flanks, not repeated: GGGAGUUCUACAGUCCGACGAUC … UGGAAUUCUCGGGUGCCAA
Construct (chain): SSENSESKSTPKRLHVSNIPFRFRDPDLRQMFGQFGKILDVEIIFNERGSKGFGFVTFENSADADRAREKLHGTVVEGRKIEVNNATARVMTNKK
| Sequence | RBNS enrichment (R) |
| --- | --- |
| CGCCCCUGGGGCUGGCCUCUCCGCCCUCGCCCUCGGAGUAGGGGGUAGCGGCUUGGGUCUGACACAUCUUUGAACCUUGUGGCCAGGCCUGGACUUCGCCCCCAGGCCUA | 0.214 |
| GGAGGCUCCCGAGGGGAAGGGGCGGUGCCCACACCGGGGACAGGCCGCAGCUCCAUUUUCUUAUUGCGCUGCUACCGUUGACUUCCAGGCACGGUUUGGAAAUAUUCACA | 4.07 |
| GGAGUAGGACAGAACUGGAAAGCUGAGUGGGCCUCAGUGUGGAGAGGUACUAGUGGACAGGACUUUCAUGGCUUGGGUCCAUGCUCCUCCCACACCCAAGAGGAGUGGUG | 1.09 |
| AUUGGGCCCAAUUCUAAGCUCAACCUAGUUGUUAAGCCUUUGGAGAAGGUGCUACUGGAAGAAGGGUCUGCCCACAGACUGGUCGACUCCCCAGCCACCCCCAUCUGGCA | 0.421 |
| AUUUCCCACAGGAGUCCAUUGGGUUCAGCUUUGAAAGAGGAAUAGAAUCGAGGCUCCUUUGACCAUCAAAAUGAUGAACUUUACUUAUGUGGUACCCAAUGCCAGAAUGU | 0.391 |
| AUCCGUCUCCUCACGGUGCAAUCAGGCAGGACAGGAGGAGGUGCAGGGCUACCACAUUGACCCAGAUGGUAUCUCCUCUCACCAUUCAGACAUCCAUAAGGAAUGCCAAA | 0.272 |
| UGCCCAGUGGCUGUGCACUGCUCUGUGCACGUGCGUGUGUGUGAGUGCACUUGUGUGUGGGUGACUAAGUGGAUGCAUGUGUGUGCCUGUGUGAGUGAGGGUAUGUGCAC | 12.2 |
| AAUACACCACUCCUCUACCUUCUUUAUUUUCUCAGUGUGGAAAAUGCCUGAUGAAAGCUUUGGGGCCCUCACAGAUGCACAACUCAAGUGCUGAUUCUAUCACUUAUCUA | 0.412 |

Block 2 — cell line: HEK-293T; effect on: pseudovirus infection; technique: FDA-approved drug library screen; organism: VSV pseudotyped with SARS-CoV-2 spike; tested at: 10 µM; time: 16 h; baseline: vehicle-treated
| Compound | GFP-positive cells |
| --- | --- |
| COC(=O)C1=C(C)NC(C)=C(C(=O)OC(C)C)C1c1cccc2nonc12 (stereo not shown) | 64.1% |
| CCN(CC)C(=O)/C(C#N)=C/c1cc(O)c(O)c([N+](=O)[O-])c1 | 81.1% |
| CCOC(=O)[C@H](CCc1ccccc1)N[C@@H](C)C(=O)N1Cc2ccccc2C[C@H]1C(=O)O | 77% |

Block 3 — technique: universal PBM; form: double-stranded DNA, one strand shown; sample: in vitro; tested at: not given; direction: higher = stronger binding
Target: Sal-like protein 4, full length isoform B (SALL4, Homo sapiens, UniProt Q9UJQ4-2, residues 1-616)
Setting: 8-mer, flanks averaged, mean of replicates
| Sequence | E-score |
| --- | --- |
| AACATCGC | -0.222 |
| TACGCTGA | 0.0297 |
| GATTTCAC | 0.161 |
| GGCTGCCA | -0.254 |
| ATTGCTTG | 0.121 |
| AAAGTCGA | -0.0709 |
| AGCAAATA | 0.267 |
| AGTTGTAT | 0.196 |

Block 4 — technique: protein-binding microarray; form: double-stranded DNA, one strand shown; sample: in vitro; tested at: 250 nM; setting: 60-bp whole probe; with: salmon DNA 0.4 mg/ml; baseline: random background probes; direction: higher = stronger binding; shared flanks, not repeated: GCCTAGCAC … GTCTTGATTCGCTTGACGCTGCTG
Target: Interferon regulatory factor 7, full length, phosphomimetic (IRF7, Homo sapiens, UniProt Q92985, residues 1-503, S101K/S471D/S472D/S475D/S476D/S477D/S483D/S484D/S487D)
Construct (chain): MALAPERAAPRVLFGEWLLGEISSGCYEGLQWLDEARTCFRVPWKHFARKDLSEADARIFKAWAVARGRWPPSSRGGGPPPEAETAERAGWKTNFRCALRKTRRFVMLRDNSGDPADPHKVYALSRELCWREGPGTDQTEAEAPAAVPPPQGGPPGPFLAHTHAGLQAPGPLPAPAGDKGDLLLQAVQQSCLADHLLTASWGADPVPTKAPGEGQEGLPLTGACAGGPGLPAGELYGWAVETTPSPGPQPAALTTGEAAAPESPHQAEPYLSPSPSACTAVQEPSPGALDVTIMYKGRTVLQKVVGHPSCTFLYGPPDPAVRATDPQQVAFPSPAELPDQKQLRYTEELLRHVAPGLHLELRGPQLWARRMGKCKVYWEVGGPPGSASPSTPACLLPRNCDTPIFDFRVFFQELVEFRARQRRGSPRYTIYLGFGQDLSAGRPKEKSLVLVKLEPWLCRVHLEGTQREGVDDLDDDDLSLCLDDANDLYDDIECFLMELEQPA
| Sequence | log fluorescence [z-score] |
| --- | --- |
| TCAGGTTCCCATTCCAGACTGTGCTAG | 2.1 |
| GACGGTTTCGTGTTTCGGGACGTGCTA | 10.3 |
| GACGGTCTCGGTATCGCGACGTGCTAG | 1.57 |
| TTGGGTTTCGGTATCGGTTAGTGCTAG | 9.5 |
| GACGGTATCCTTAGCCTGACGTGCTAG | -0.241 |
| TTAGATATCGGGACTGGATGAGTGCTA | -0.152 |
| TTAAGACTGGACACTGGGTTAGTGCTA | -0.744 |
| TTAGGTTTGGGTCTCGGTTAGTGCTAG | 1.19 |

Block 5 — mode: inhibitor; tested at: 20 µM
Target: Replicase polyprotein 1ab, nsp13 helicase (rep, Severe acute respiratory syndrome coronavirus 2, UniProt P0DTD1)
| SMILES | inhibition |
| --- | --- |
| O=C(Nc1cc2cc[nH]c2cn1)c1ccccc1 | 8.26% |
| COC(=O)N(C)c1c(N)nc(-c2nn(Cc3ccccc3F)c3ncccc23)nc1N | 2.65% |
| COc1cc2c(NC3CCN(C(C)C)CC3)nc(C3CCCCC3)nc2cc1OCCCN1CCCC1 | 25.5% |
| N#C/C(=C1/SC[C@@H](c2ccc(Cl)cc2Cl)S1)n1ccnc1 | 0.32% |
| COc1ccc(CCc2nc3cc(-c4c(C)noc4C)ccc3n2C[C@H](C)N2CCOCC2)cc1Cl | 8.97% |
| CNC(=O)c1ccc(-c2cnc3ncc(Cc4ccc5ncccc5c4)n3n2)cc1F | 8.31% |
| O=C(OC[C@H]1O[C@@H](OC(=O)c2cc(O)c(O)c(OC(=O)c3cc(O)c(O)c(O)c3)c2)[C@H](OC(=O)c2cc(O)c(O)c(OC(=O)c3cc(O)c(O)c(O)c3)c2)[C@@H](OC(=O)c2cc(O)c(O)c(OC(=O)c3cc(O)c(O)c(O)c3)c2)[C@@H]1OC(=O)c1cc(O)c(O)c(OC(=O)c2cc(O)c(O)c(O)c2)c1)c1cc(O)c(O)c(OC(=O)c2cc(O)c(O)c(O)c2)c1 | 98% |
| O=C(C1CCCCC1)N1CC(=O)N2CCc3ccccc3C2C1 (stereo not shown) | 5.64% |
| Cc1cc(Oc2ccc3nc(COc4ccc(CC5SC(=O)NC5=O)cc4)n(C)c3c2)cc(C)c1N (stereo not shown) | -3.9% |
| O=C(O)COc1cccc(-c2ocnc2-c2nc(-c3ccccc3)c(-c3ccccc3)o2)c1 | -4.18% |
| C/C(=C\c1ccc(C(=O)O)cc1)c1ccc2c(c1)C(C)(C)CCC2(C)C | 8.01% |
| Cc1cccn2c(=O)c(-c3nnn[nH]3)cnc12 | -0.48% |
| CCCCC(=O)NCCc1c(Cc2ccccc2)[nH]c2ccccc12 | 0.43% |
| CNC(=O)COC(=O)NCCC1CCN(c2cccc(C)n2)CC1 | 1.71% |
| CN1CCN(c2ccc(C(=O)Nc3n[nH]c4ccc(Cc5cc(F)cc(F)c5)cc34)c(NC3CCOCC3)c2)CC1 | 5.87% |
| CC(Cc1ccc(O)cc1)NCC(O)c1cc(O)cc(O)c1 (stereo not shown) | 5.2% |
| O[C@H]1CC[C@H](Nc2nc(-c3ccccc3)nc3[nH]ccc23)CC1 | 5.08% |
| C=CC(C)(C)c1cc(/C=C/C(=O)c2ccc(O)cc2)c(OC)cc1O | 1.41% |
| O=C(O)CNC(=O)C(CS)Cc1ccccc1 (stereo not shown) | -2.3% |
| CCOC(=O)c1ncn2c1CN(C)C(=O)c1cc(F)ccc1-2 | -1.77% |
| COc1ccccc1OCCNCC(O)COc1cccc2[nH]c3ccccc3c12 (stereo not shown) | 14.9% |
| CN1CCN(CCCN2c3ccccc3Sc3ccc(S(=O)(=O)N(C)C)cc32)CC1 | 13.4% |
| CCOC(=O)[C@H]1O[C@@H]1C(=O)N[C@@H](CC(C)C)C(=O)NCCC(C)C | -26.4% |
| O=C1Cc2c([nH]c3ccc(Br)cc23)-c2ccccc2N1 | 2.53% |
| CC1(C)S[C@@H]2[C@H](/N=C/N3CCCCCC3)C(=O)N2[C@H]1C(=O)O | 1.76% |

A few entries again (block 4):
| Sequence | log fluorescence [z-score] |
| --- | --- |
| GACGGTATCCTTAGCCTGACGTGCTAG | -0.241 |
| TTAGATATCGGGACTGGATGAGTGCTA | -0.152 |
| TTAAGACTGGACACTGGGTTAGTGCTA | -0.744 |
| TTAGGTTTGGGTCTCGGTTAGTGCTAG | 1.19 |
